{"data": "Assay results gathered from unrelated publications", "note": "Protocols differ between the studies behind these lines. Numbers after ± are the reported error.", "sequence of UniProt O95372 (whole entry, looked up)": "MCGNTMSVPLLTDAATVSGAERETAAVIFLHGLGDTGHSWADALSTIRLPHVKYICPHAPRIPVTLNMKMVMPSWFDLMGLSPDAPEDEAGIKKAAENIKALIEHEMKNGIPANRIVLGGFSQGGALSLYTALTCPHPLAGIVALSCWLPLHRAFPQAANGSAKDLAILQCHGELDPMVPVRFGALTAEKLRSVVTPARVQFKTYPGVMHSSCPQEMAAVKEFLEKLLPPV", "sequence of UniProt P06276 (whole entry, looked up)": "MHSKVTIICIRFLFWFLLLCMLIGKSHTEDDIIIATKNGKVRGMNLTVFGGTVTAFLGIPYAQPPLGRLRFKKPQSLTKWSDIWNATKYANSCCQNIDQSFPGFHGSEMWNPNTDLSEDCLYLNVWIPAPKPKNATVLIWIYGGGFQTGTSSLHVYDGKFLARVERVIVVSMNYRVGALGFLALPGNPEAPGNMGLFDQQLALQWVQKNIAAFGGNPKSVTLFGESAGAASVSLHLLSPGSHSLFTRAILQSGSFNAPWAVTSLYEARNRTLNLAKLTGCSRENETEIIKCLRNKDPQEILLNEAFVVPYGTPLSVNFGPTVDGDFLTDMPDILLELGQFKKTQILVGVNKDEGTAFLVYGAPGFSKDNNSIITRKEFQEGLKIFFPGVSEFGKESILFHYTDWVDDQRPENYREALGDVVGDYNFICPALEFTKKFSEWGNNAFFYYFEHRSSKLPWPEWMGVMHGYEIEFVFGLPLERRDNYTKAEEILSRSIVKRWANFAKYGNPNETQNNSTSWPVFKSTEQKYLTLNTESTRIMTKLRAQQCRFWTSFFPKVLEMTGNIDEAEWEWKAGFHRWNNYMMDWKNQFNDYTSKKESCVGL", "sequence of UniProt P18825 (whole entry, looked up)": "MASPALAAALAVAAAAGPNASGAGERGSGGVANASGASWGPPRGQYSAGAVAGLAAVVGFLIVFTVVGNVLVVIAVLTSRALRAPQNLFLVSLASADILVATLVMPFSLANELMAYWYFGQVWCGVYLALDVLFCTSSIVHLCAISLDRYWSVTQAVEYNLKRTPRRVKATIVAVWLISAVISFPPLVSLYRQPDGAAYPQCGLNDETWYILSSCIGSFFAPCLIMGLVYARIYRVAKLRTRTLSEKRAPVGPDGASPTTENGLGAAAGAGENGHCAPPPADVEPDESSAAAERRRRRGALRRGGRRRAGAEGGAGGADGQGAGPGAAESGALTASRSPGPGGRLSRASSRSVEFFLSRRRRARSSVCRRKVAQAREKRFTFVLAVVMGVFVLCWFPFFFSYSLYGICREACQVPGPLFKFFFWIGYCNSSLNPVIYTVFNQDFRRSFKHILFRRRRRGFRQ", "sequence of UniProt P00519 (whole entry, looked up)": "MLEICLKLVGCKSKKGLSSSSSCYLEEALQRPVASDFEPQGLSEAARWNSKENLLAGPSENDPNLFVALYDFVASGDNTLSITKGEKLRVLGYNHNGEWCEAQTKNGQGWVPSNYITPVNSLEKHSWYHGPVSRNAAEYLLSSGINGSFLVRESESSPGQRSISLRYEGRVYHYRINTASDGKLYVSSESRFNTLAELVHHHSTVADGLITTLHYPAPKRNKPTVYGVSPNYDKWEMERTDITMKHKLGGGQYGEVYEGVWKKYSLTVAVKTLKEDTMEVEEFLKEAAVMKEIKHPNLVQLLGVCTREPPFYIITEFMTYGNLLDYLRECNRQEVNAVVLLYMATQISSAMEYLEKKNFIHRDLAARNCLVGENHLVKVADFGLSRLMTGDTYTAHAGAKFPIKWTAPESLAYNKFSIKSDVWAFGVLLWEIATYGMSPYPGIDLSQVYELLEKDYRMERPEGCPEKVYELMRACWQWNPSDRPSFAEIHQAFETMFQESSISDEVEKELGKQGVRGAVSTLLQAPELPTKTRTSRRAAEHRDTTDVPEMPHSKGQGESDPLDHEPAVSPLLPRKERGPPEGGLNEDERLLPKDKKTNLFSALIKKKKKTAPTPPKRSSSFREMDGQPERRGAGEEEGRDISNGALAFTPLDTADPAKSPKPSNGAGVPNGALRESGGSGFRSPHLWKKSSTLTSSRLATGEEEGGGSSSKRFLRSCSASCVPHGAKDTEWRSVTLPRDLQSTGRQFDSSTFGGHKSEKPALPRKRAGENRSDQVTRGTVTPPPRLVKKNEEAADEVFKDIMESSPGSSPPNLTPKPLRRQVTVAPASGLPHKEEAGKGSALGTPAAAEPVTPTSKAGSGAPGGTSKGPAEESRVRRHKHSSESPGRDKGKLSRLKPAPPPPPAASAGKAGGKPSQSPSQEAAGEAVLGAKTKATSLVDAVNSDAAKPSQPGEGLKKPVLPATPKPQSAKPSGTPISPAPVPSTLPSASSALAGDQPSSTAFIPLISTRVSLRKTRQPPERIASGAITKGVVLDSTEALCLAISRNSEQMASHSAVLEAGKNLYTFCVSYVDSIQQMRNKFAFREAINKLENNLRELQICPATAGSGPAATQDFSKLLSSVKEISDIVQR", "sequence of UniProt P48145 (whole entry, looked up)": "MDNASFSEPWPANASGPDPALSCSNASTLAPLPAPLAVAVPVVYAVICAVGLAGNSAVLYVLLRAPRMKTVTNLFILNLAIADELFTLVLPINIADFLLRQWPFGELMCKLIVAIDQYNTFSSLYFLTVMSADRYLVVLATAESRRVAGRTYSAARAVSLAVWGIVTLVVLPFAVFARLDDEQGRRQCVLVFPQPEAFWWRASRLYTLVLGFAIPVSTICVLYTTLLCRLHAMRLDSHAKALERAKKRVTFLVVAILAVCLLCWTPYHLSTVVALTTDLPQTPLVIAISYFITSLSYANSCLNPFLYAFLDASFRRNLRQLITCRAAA", "sequence of UniProt Q9UIA9 (whole entry, looked up)": "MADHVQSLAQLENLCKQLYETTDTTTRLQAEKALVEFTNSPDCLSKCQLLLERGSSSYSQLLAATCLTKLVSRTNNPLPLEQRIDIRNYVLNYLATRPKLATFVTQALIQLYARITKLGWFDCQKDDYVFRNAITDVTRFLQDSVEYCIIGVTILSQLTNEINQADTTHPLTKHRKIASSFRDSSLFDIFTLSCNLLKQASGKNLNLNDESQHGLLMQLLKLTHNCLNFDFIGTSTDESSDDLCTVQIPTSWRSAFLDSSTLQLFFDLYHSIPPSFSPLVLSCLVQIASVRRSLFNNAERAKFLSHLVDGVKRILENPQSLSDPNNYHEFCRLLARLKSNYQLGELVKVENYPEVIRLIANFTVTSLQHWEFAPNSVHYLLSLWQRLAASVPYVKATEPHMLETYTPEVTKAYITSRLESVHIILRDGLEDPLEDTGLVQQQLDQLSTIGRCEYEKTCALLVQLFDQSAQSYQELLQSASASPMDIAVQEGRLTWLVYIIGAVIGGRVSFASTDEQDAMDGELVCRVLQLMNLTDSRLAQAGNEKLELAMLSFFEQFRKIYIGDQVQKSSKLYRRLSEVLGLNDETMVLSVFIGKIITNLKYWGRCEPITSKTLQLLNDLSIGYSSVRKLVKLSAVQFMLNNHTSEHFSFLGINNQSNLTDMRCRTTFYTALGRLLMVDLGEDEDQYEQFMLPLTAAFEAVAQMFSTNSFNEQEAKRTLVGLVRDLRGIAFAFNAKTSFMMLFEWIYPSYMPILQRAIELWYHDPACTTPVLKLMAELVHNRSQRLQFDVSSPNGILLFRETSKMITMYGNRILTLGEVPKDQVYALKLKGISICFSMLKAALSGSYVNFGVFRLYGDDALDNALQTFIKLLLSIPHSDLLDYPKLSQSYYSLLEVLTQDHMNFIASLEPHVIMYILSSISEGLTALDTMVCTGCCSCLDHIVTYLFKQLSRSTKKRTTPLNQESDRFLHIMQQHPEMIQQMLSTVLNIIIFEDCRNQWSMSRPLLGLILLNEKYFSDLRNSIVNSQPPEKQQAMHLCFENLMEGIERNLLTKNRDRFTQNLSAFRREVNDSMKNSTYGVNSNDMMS", "sequence of UniProt P35462 (whole entry, looked up)": "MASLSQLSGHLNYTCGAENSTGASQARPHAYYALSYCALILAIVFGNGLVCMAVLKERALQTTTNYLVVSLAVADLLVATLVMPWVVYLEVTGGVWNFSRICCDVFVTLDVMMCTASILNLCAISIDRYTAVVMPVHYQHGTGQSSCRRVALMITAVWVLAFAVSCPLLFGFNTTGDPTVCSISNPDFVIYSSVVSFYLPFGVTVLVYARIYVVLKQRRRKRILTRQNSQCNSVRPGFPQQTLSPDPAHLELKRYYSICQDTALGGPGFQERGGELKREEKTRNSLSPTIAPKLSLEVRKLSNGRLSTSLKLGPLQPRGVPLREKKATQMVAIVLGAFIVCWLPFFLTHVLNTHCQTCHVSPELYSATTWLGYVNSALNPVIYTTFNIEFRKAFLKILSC", "sequence of UniProt P46663 (whole entry, looked up)": "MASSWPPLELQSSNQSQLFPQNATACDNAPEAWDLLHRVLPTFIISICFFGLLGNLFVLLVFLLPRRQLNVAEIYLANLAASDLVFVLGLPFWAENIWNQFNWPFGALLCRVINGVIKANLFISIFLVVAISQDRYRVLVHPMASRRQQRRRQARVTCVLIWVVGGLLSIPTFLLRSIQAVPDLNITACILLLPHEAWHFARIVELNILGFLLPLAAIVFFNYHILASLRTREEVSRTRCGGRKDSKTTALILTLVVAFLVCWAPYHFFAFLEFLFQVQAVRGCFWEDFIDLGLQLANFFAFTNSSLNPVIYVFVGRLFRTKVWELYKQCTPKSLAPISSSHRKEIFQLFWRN", "sequence of UniProt Q7Z602 (whole entry, looked up)": "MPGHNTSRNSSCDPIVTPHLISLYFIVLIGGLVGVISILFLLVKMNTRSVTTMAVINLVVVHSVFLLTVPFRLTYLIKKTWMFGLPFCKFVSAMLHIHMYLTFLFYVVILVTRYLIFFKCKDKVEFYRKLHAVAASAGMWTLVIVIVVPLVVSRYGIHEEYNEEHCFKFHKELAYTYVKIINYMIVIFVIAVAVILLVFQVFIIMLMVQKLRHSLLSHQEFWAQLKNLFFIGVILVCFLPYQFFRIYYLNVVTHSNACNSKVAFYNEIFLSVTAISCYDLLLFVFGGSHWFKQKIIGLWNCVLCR"}
{"SMILES": "O=C(c1ccc(Cl)cc1)N1CCN2C(=O)N(OC(=O)N3CCOc4ccccc43)C(=O)C2C1 (stereo not drawn)", "tested on": "Acyl-protein thioesterase 2 (Homo sapiens, UniProt O95372)", "assay": "MS-based ABPP", "system": "SW-620 conditioned medium", "setting": "10 µM, 1 h, 37 °C", "how to read": "baseline: compound over DMSO, lower = more inhibition", "measurement": "mean protein ratio", "result": 1.06}
{"SMILES": "O=C(NCCN1CCC2(CC1)C(=O)NCN2c1cccc(F)c1)c1ccc(F)c(F)c1", "tested on": "Cholinesterase (BCHE, Homo sapiens, UniProt P06276)", "assay": "inhibitor", "measurement": "IC50", "result": "1240 ± 280 nM"}
{"SMILES": "COc1cc(N)c(Cl)cc1C(=O)NC1CN2CCC1CC2 (stereo not drawn)", "tested on": "Probable G-protein coupled receptor 141 (GPR141, Homo sapiens, UniProt Q7Z602)", "assay": "β-arrestin recruitment, TANGO luminescence, refers to: GPR141", "setting": "concentration not given", "how to read": "baseline: basal luminescence", "measurement": "log2 fold change", "result": 0.075}
{"SMILES": "CN1CCN(c2cc(-c3ccncc3)c(-c3ccc4ccccc4c3)nn2)CC1", "tested on": "NPBWR1 (Homo sapiens, UniProt P48145)", "assay": "antagonist, FLIPR", "setting": "10 µM", "measurement": "inhibition", "result": "29.7%"}
{"SMILES": "O=C(Nc1cccnn1)N1CCC(=Cc2cccc(Oc3ccc(C(F)(F)F)cn3)c2)CC1", "tested on": "BDKRB1 (Homo sapiens, UniProt P46663)", "assay": "binding", "setting": "10 µM, together with: [3H][des-Arg10]kallidin", "measurement": "inhibition", "result": "13%"}
{"SMILES": "C[C@H]1CN(c2n[nH]c3nc(N[C@H]4CC[C@H](NS(=O)(=O)CCC(F)(F)F)CC4)ncc23)CCO1", "tested on": "Exportin-7 (Homo sapiens, UniProt Q9UIA9)", "assay": "Kinobeads competition, refers to: XPO7", "setting": "20 µM, unit not given", "how to read": "baseline: vehicle", "measurement": "remaining binding", "result": 1.18}
{"SMILES": "COc1ccc(N2C(=O)N(c3c(C)cccc3Cl)Cc3cnc(Nc4ccc(C5CCN(C)CC5)cc4OC)nc32)nc1", "tested on": "PDGFRB (Homo sapiens, UniProt P09619)", "assay": "kinase activity, inhibitor", "setting": "0.5 µM, kinase PDGFR-BETA", "measurement": "inhibition", "result": "100%"}
{"SMILES": "CC(COc1ccccc1)N(CCCl)Cc1ccccc1 (stereo not drawn)", "tested on": "Plasmodium falciparum", "system": "7G8", "measurement": "IC50", "result": "7940 nM"}
{"SMILES": "O=C(Nc1cnccc1Cl)N1CCN(Cc2ccc3c(c2)OC(F)(F)O3)CC1", "tested on": "ADRA2C (Homo sapiens, UniProt P18825)", "assay": "binding", "setting": "50 µM, together with: [3H]rauwolscine", "measurement": "inhibition", "result": "37%"}
{"SMILES": "[2H]c1c([2H])c([C@]2([2H])CCCN2C(=O)C(C)(C)Oc2ccc3cn[nH]c3c2)c([2H])c([2H])c1C([2H])([2H])[2H]", "tested on": "Tyrosine-protein kinase ABL1, non-phosphorylated (ABL1, Homo sapiens, UniProt P00519)", "assay": "KINOMEscan", "setting": "1 µM", "how to read": "baseline: DMSO control", "measurement": "remaining binding", "result": "54%"}
{"SMILES": "COC(=O)[C@H]1[C@H]2C[C@@H]3c4[nH]c5cc(OC)ccc5c4CCN3C[C@H]2C[C@@H](OC(=O)c2cc(OC)c(OC)c(OC)c2)[C@@H]1OC", "tested on": "Plasmodium falciparum", "system": "3D7", "measurement": "IC50", "result": "2000 nM"}
{"SMILES": "CN(C(=O)n1cnc(-c2ccc[n+]([O-])c2)c1)C1CCCCC1", "tested on": "DRD3 (Homo sapiens, UniProt P35462)", "assay": "radioligand binding", "setting": "10 µM, together with: [3H]spiperone", "measurement": "inhibition", "result": "2%"}
{"note": "Some of these lines once more:"}
{"SMILES": "O=C(NCCN1CCC2(CC1)C(=O)NCN2c1cccc(F)c1)c1ccc(F)c(F)c1", "tested on": "Cholinesterase (BCHE, Homo sapiens, UniProt P06276)", "assay": "inhibitor", "measurement": "IC50", "result": "1240 ± 280 nM"}
